Measured values of several laboratories.
Parts stem from different laboratories: compare values within a part only. Changes are numbered by the printed parent chain.

Set 1 — target: CCNB3, cyclin fold, Cln2 fusion (human); method: yeast growth competition, sequencing; medium: yeast; setting: weak parent motif; relative to: not given; direction: higher = stronger binding; quantity: normalised enrichment score
Starting sequence: ORC1 docking peptide (human); PRARKRLELGNLG; partner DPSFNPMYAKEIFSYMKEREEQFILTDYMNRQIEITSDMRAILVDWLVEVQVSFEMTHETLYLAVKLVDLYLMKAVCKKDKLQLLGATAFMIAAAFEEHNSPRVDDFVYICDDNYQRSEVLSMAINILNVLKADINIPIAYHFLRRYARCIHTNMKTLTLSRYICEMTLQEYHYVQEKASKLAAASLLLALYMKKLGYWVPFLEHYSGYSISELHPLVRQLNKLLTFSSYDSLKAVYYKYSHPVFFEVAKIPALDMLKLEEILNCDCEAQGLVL
G13A: 0.103
E8S: 0.241
R2D: 0.296

Set 2 — method: protein-binding microarray; molecule type: double-stranded DNA, one strand shown; medium: in vitro; concentration: 2200 nM top; setting: 60-bp whole probe; together with: salmon DNA 0.4 mg/ml; relative to: random background probes; direction: higher = stronger binding; quantity: fitted relative affinity; shared flanks, not repeated: GCCTAGCAC … GTCTTGATTCGCTTGACGCTGCTG
Target: Interferon regulatory factor 7, full length, phosphomimetic (IRF7, Homo sapiens, UniProt Q92985, residues 1-503, S471D/S472D/S475D/S476D/S477D/S483D/S484D/S487D)
UniProt Q92985, sequence (whole entry, unmodified, looked up): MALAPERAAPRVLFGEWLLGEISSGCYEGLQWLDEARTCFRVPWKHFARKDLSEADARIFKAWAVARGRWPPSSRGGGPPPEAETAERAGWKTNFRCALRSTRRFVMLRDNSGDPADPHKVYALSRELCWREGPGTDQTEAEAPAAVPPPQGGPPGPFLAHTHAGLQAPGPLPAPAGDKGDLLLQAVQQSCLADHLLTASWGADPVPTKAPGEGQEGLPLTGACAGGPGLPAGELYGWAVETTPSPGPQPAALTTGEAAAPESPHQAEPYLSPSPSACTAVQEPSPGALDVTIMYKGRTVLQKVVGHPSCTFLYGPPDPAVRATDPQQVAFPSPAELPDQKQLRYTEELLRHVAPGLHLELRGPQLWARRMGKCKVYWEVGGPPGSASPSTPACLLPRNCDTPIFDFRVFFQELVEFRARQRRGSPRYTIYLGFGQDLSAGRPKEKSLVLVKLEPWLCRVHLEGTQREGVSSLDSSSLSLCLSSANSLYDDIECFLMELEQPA
GACGGTTTCCTTCTCCTGAAGTGCTAG: 3.02 z-score
TTAGGTATCCTACTGCTTTGGTGCTAG: 0.66 z-score
TTGCATCGTAAGCAAAAATGGTGCTAG: -0.0665 z-score
TCAAATAATCTTTTCACACTGTGCTAG: 0.252 z-score
TTAGATATCGGGACTGCATTAGTGCTA: -0.165 z-score
TCAACTTTCTTTAACTCACTGTGCTAG: 1.07 z-score

Set 3 — method: protein binding microarray; molecule type: double-stranded DNA, one strand shown; medium: in vitro; concentration: not given; relative to: not given; direction: higher = stronger binding; quantity: E-score
Target: Histone acetyltransferase KAT6A, winged helix 1, GST fusion (KAT6A, Homo sapiens, UniProt Q92794, residues 1-85)
Setting: 8-mer, flanks averaged, mean of 2 arrays, mostly near background
Residues (chain): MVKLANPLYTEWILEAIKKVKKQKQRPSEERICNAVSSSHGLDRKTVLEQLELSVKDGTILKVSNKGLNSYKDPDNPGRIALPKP
CCGAGCGG: 0.362
GATATCTA: -0.145
GTAGAGAC: -0.162
ACGTTTTA: -0.117
TCGGAAAA: 0.147
CGGTAACG: 0.314

Mixed results
PhoQ, residues 284 288 289 292 302 303 AQGLTV
fold induction (PhoP, residues 12 14 15 18 19 NQAHL (Escherichia coli, UniProt P23836); Sort-seq, measured: YFP reporter; E. coli; PhoQ-PhoP variant library, together with: 10 µM Mg2+; relative to: high Mg2+ state, higher = stronger signaling): 0.833

A few entries again (set 3):
GTAGAGAC: -0.162
ACGTTTTA: -0.117
TCGGAAAA: 0.147
